Assay results from different studies.
Each numbered part is a random draw from the data of one study; scales do not carry over between parts. Positions count from the first letter of the parent shown.
Sequence of UniProt P61075 (whole entry, looked up): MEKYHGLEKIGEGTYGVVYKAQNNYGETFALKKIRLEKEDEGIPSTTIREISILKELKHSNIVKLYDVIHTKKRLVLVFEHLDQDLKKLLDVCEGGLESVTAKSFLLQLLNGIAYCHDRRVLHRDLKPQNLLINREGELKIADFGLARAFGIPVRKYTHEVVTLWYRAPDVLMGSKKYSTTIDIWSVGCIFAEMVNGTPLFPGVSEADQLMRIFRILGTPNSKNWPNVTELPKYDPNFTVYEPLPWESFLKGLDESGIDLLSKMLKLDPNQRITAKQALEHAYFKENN
Sequence of UniProt Q9UQM7 (whole entry, looked up): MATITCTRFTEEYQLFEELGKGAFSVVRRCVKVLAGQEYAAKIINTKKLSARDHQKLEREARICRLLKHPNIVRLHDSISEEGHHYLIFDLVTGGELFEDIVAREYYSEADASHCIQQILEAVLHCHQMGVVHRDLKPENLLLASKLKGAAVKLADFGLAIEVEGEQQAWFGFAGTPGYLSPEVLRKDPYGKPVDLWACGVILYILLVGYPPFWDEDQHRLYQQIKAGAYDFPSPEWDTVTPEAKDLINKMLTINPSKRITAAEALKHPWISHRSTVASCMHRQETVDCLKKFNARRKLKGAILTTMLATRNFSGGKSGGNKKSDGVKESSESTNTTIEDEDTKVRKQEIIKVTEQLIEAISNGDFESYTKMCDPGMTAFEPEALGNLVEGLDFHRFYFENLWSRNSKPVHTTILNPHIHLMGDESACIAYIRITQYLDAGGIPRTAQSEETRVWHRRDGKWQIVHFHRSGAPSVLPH

Series 1
Target: CCND2, cyclin fold, Cln2 fusion (human)
Method: yeast growth competition, sequencing
Matrix: yeast
Setting: weak parent motif
Baseline: not given
Reading: higher = stronger binding
Endpoint: normalised enrichment score
Parent: viral docking peptide; KGVKRKLFAEDSS; partner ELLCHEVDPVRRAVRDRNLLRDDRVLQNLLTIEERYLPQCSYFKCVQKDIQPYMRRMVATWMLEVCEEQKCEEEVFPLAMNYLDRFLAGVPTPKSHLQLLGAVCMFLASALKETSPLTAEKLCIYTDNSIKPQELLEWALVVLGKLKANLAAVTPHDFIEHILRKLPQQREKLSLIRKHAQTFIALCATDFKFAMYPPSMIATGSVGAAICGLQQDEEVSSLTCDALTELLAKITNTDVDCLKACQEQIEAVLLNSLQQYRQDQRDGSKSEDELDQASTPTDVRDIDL
D11P: -0.0788
S12C: 0.312
K4N: 0.025
A9F: 0.231

Further values, each from its own experiment
HLA class I histocompatibility antigen, B alpha chain allele B*08:02: HLA class I histocompatibility antigen, B alpha chain, allele B*08:02 (Homo sapiens, UniProt P01889)
FMKSRVYSI  binding (HLA class I histocompatibility antigen, B alpha chain allele B*08:02; peptide-MHC binding; peptide; concentration not given): active
c1c2c(cc3c1OCO3)-c1cc3cc4c(cc3c[n+]1CC2)OCO4  inhibition (CAMK2A (Homo sapiens, UniProt Q9UQM7); enzyme activity, inhibitor; 10 µM): 0%
SMKTRTAWF  binding (HLA class I histocompatibility antigen, B alpha chain allele B*08:02; peptide-MHC binding; peptide; concentration not given): active
O=c1nc(-c2ccccn2)sc2ccccc12  remaining binding (CRK2 (Plasmodium falciparum, UniProt P61075); cell-free assay, competition with immobilised ligand; 1 µM): 100%
